Experimental data from different studies.
Protocols differ between the studies behind these lines. ± marks the error that the study gave.

SMILES	assay	test system	conditions	scale	measurement	value
COCC1CN(C2CCN(c3cc(OC)c(Nc4ncc(Br)c(Nc5ccc6c(c5P(C)(C)=O)OCCO6)n4)cc3C)CC2)C1		human patients	oral, 10 to 240 mg once daily		treatment-related Anorexia, all grades	33.3%
CC[C@H](C)[C@@H]1NC(=O)[C@H](Cc2ccccc2)NC(=O)[C@@H](NC(=O)[C@H](CCCNC(=N)N)NC(=O)[C@H](Cc2ccccc2)NC(=O)[C@H](Cc2ccccc2)NC(=O)[C@H](CCCCN)NC(=O)[C@H](CO)NC(=O)[C@H](CC(C)C)NC(=O)[C@H](CCCNC(=N)N)NC(=O)[C@H](CCSC)NC(=O)[C@H](C)N)CCCNC(=O)NCC[C@@H](C(=O)N[C@@H](CCCNC(=N)N)C(=O)N[C@@H](CCCCN)C(=O)N[C@@H](CCCCN)C(=O)O)NC(=O)[C@H](CC(C)C)NC1=O	circular dichroism	20% TFE in PBS	200 µM, pH 7.4, 25 °C		helicity	12.6%
CCC/C(=C\C1=C(C(F)(F)F)C(=O)c2ccccc2C1=O)C(=O)N(CC)CC	metabolic stability	human, liver microsomes	1 µM, pH 7.4		scaled CLint	36.3 mL/min/kg
CC(C)c1cnc(-c2cc(Cl)ccc2F)cc1Nc1ccncc1C(=O)NC(CO)CO		human patients	oral, dose not given, worst grade 1		patients with any TRAE	23.8%
O=C(CCc1ccc(CNC(C(=O)O)C2CCCCC2)cn1)NO (stereo not drawn)		healthy male humans	oral, 40 mg once daily, 7 days, median	relative to: day 7 over day 1	accumulation ratio AUC	1.02
COc1ccc(S(=O)(=O)N2CCc3ccccc3C2)cc1N1CCN(C(=O)c2ccc(F)cc2C(F)(F)F)CC1		rat, plasma	intravenous, 10 mg/kg, 1 h, single dose		concentration	449 ng/mL
Cn1c(=O)oc2ccc(-c3ccc(CC(C#N)NC(=O)C4CNCCCO4)c(F)c3)cc21 (stereo not drawn)	refers to: glucose urine present	human	60 mg single dose, fasted		subjects with TEAE	0%
Oc1ccc2ccccc2c1/N=N/c1ccc(/N=N/c2ccccc2)cc1		extracted rat blood QC samples	0.5 µg/L, 2 h, room temperature, short-term stability		measured concentration	0.503 µg/L
O=c1c2cc([N+](=O)[O-])ccc2n(CCBr)n1Cc1ccccc1	resazurin	peritoneal macrophages, BALB/c mice	48 h, 10% FBS		CC50	3.8 ± 1.7 µM
CC[C@H](C)[C@@H]1NC(=O)[C@H](Cc2ccccc2)NC(=O)[C@@H](NC(=O)[C@H](CCCNC(=N)N)NC(=O)[C@H](Cc2ccccc2)NC(=O)[C@H](Cc2ccccc2)NC(=O)[C@H](CCCCN)NC(=O)[C@H](CO)NC(=O)[C@H](CC(C)C)NC(=O)[C@H](CCCNC(=N)N)NC(=O)[C@H](CCSC)NC(=O)[C@H](C)N)CNC(=O)NCCC[C@@H](C(=O)N[C@@H](CCCNC(=N)N)C(=O)N[C@@H](CCCCN)C(=O)N[C@@H](CCCCN)C(=O)O)NC(=O)[C@H](CC(C)C)NC1=O	circular dichroism	20% TFE in PBS	200 µM, pH 7.4, 25 °C		helicity	22.1%
CC(=O)[CH](C(C)=O)[Pt-2]1([S+](C)C)[O]C(C)=CC(C)=[O+]1 (stereo not drawn)		rat, blood	intravenous, 5 mg/kg, single dose		AST	86.7 ± 9.2 U/L
CC(O)c1cc(Cl)ccc1Cn1c(=S)[nH]c(=O)c2[nH]ccc21 (stereo not drawn)		dog, both sexes, plasma	100 mg/kg	relative to: dog over human 15 mg	exposure ratio	not detected
CC[C@@H](C)[C@H]1NC(=O)[C@@H]([C@H](C)O)NC(=O)[C@@H](Cc2c[nH]cn2)NC(=O)CNC(=O)[C@@H](CCCNC(=N)N)NC(=O)CNC(=O)[C@@H](Cc2ccccc2)NC1=O		New Zealand rabbit, retina-choroid	eye drop, 0.5% single, 24 h		retina-choroid concentration	3.5 µg/g protein
Cc1cc(O)cc(O)c1C(=O)c1c2c3c(c(O)cc(C)c3oc1=O)C(=O)c1c(O)cc(O)cc1-2		Caco-2 monolayer	400 µM, 3 h, pH 7.4	relative to: AP to BL over BL to AP	efflux ratio	72.5
CC(C)(O)c1ncc([S@](N)(=O)=NC(=O)Nc2c3c(cc4c2CCC4)CCC3)s1		healthy human	oral, 30 mg once daily, day 14, capsule formulation, median		Tmax	1.5 h
C=CC(=O)Nc1cccc(-c2cnc3[nH]cc(C(=O)NC(C)(C)C)c3n2)c1		mouse, tumour-bearing	ip, 25 and 50 mg/kg, 14 days		liver, kidney function and blood counts	no effect
CC(C)(Sc1ccncc1-c1ccc(C#N)c2ccccc12)C(=O)OC1OC(C(=O)O)C(O)C(O)C1O (stereo not drawn)		plasma	oral, 15 mg, moderate renal impairment	relative to: impaired over normal renal function	AUC(0-inf) ratio	313%
COCCOCCOCCOCCOCCOCCOCCOCCC(=O)NCCCc1cc2cc3nc(cc4[nH]c(cc5nc(c(OC)c1[nH]2)C(=O)C5(C)C)cc4CCc1ccc(C(=O)O)cc1)CC3(C)C		water with 5% DMF	room temperature		integrated Qy/B absorption ratio	0.2
N=C(N)NCCC[C@@H]1NC(=O)[C@H](Cc2c[nH]c3ccccc23)NC(=O)[C@@H](CC2CCCCC2)NC(=O)[C@@H]2CCCN2C(=O)[C@@H](NC(=O)CCc2ccccc2)CCCNC1=O		C57BL/6J mouse, plasma plasma	intravenous, 1 mg/kg single dose		MRT(0-inf)	37 min
CC[N+]1=C(C=CC=CC=C2N(CCCCCC(=O)O)c3ccc4c(S(=O)(=O)[O-])cc(S(=O)(=O)[O-])cc4c3C2(C)C)C(C)(C)c2c1ccc1c(S(=O)(=O)[O-])cc(S(=O)(=O)[O-])cc21.[K+].[K+].[K+]		100% serum	pH 7.4		absorbance maximum	682 nm
CC[C@H](C)[C@H](NC(=O)[C@@H]1CCCN1C(=O)CNC(=O)[C@H](Cc1ccccc1)NC(=O)[C@H](CC(N)=O)NC(=O)[C@H](CC(N)=O)NC(=O)[C@H](CO)NC(=O)[C@H](CO)NC(=O)[C@H](Cc1c[nH]cn1)NC(=O)[C@@H](NC(=O)[C@H](CC(C)C)NC(=O)[C@H](Cc1ccccc1)NC(=O)[C@H](CC(N)=O)NC(=O)[C@H](C)NC(=O)[C@H](CC(C)C)NC(=O)[C@H](CCCNC(=N)N)NC(=O)[C@H](CCC(N)=O)NC(=O)[C@@H](NC(=O)[C@H](C)NC(=O)[C@@H]1CSSC[C@H](NC(=O)[C@@H](N)CCCCN)C(=O)N[C@@H](CC(N)=O)C(=O)N[C@@H]([C@@H](C)O)C(=O)N[C@@H](C)C(=O)N[C@@H]([C@@H](C)O)C(=O)N1)[C@@H](C)O)C(C)C)C(=O)N[C@@H](CC(C)C)C(=O)N[C@@H](CO)C(=O)N[C@@H](CO)C(=O)N[C@H](C(=O)N[C@@H](CC(N)=O)C(=O)N[C@H](C(=O)NCC(=O)N[C@@H](CO)C(=O)N[C@@H](CC(N)=O)C(=O)N[C@H](C(=O)N[C@@H](Cc1ccc(O)cc1)C(N)=O)[C@@H](C)O)C(C)C)[C@@H](C)O	thioflavin T fluorescence	phosphate buffer	16 µM, pH 7.4, 25 °C		half-time of amyloid formation	42.8 ± 0.5 h
CC(C)[C@H](NC(=O)CNC(=O)[C@H](CCC(N)=O)NC(=O)[C@H](C)N)C(=O)O		human, both sexes, plasma	intravenous infusion, 90 mg/kg/h, 2 h infusion, geometric mean		half-life	21 min
CCCC[C@H](NC(=O)[C@H](CC(C)C)N(C)C(=O)CNC(=O)[C@@H](NC(=O)[C@H](Cc1ccccc1)NC(=O)[C@H](CCCCN)NC(=O)[C@@H](N)CC(=O)O)C(C)C)C(N)=O		anaesthetized spinalized rat	IV, dose not given, not significant	relative to: baseline	heart rate increase	< 7%
C#CCOc1ccc(/C=C2\SC(=O)N(CC(=O)NCc3ccccc3)C2=O)cc1	inverse Kirkwood-Buff integrals	binary solvent mixture	concentration not given, 298.15 K, mole fraction x1 0.00		correlation volume	1020 cm³/mol
CSc1cc(C)nc(SC)c1NC(=O)CN1CCN(CCSc2nc3ccccc3[nH]2)CC1.Cl		female Crl:CD1 (ICR) mice, olfactory bulb	intranasal, 10 µL solution daily, 120 min, 7 days dosing		tissue concentration	0 ng/g
CCC(=O)N[C@@H](C)C(=O)OCC(=O)N[C@@H](C)C(=O)O		water	pH 3, 37 °C		depolymerization half-life	54.2 days
COc1ccc2cc(-c3ccc(-c4ccc(C)cn4)nc3)oc2c1	TCSPC	EtOH			fluorescence lifetime	2.02 ns

Repeated from above:
SMILES	assay	test system	conditions	scale	measurement	value
CC(=O)[CH](C(C)=O)[Pt-2]1([S+](C)C)[O]C(C)=CC(C)=[O+]1 (stereo not drawn)		rat, blood	intravenous, 5 mg/kg, single dose		AST	86.7 ± 9.2 U/L
CC(O)c1cc(Cl)ccc1Cn1c(=S)[nH]c(=O)c2[nH]ccc21 (stereo not drawn)		dog, both sexes, plasma	100 mg/kg	relative to: dog over human 15 mg	exposure ratio	not detected
CC[C@@H](C)[C@H]1NC(=O)[C@@H]([C@H](C)O)NC(=O)[C@@H](Cc2c[nH]cn2)NC(=O)CNC(=O)[C@@H](CCCNC(=N)N)NC(=O)CNC(=O)[C@@H](Cc2ccccc2)NC1=O		New Zealand rabbit, retina-choroid	eye drop, 0.5% single, 24 h		retina-choroid concentration	3.5 µg/g protein
Cc1cc(O)cc(O)c1C(=O)c1c2c3c(c(O)cc(C)c3oc1=O)C(=O)c1c(O)cc(O)cc1-2		Caco-2 monolayer	400 µM, 3 h, pH 7.4	relative to: AP to BL over BL to AP	efflux ratio	72.5
